Measurements pooled from the literature.
“And” joins repeats or separate records; there may be more than shown. Numbers after ± are the reported error.
Rhomboid protease AarA: Rhomboid protease AarA (Providencia stuartii, UniProt P46116)
Sequence of UniProt P46116 (whole entry, looked up): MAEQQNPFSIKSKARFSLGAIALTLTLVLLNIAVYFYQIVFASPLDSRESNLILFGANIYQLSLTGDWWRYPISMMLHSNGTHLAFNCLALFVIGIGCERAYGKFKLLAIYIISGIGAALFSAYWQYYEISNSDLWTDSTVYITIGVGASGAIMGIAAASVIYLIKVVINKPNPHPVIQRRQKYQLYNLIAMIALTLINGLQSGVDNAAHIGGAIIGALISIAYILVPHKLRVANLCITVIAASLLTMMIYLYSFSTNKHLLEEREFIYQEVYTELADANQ
IL1RL2: Interleukin-1 receptor-like 2 (IL1RL2, Homo sapiens, UniProt Q9HB29)
Sequence of UniProt Q9HB29 (whole entry, looked up): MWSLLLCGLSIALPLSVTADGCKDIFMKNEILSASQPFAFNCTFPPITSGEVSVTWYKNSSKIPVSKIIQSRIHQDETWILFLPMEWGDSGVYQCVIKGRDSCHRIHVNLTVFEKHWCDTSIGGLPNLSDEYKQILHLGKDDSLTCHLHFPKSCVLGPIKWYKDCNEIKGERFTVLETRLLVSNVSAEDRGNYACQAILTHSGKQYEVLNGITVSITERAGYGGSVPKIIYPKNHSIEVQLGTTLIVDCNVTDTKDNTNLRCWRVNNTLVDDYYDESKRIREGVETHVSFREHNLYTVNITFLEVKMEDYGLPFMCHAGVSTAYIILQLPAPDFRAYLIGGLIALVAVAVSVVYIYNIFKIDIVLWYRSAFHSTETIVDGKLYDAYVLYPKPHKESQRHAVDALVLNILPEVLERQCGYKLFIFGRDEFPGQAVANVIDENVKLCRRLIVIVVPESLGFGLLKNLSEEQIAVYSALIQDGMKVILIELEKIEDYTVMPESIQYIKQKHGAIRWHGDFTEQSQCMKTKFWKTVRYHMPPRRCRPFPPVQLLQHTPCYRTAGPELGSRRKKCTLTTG
KDM1A: Lysine-specific histone demethylase 1A (KDM1A, Homo sapiens, UniProt O60341)
CTSL: Procathepsin L (CTSL, Homo sapiens, UniProt P07711)
Sequence of UniProt P07711 (whole entry, looked up): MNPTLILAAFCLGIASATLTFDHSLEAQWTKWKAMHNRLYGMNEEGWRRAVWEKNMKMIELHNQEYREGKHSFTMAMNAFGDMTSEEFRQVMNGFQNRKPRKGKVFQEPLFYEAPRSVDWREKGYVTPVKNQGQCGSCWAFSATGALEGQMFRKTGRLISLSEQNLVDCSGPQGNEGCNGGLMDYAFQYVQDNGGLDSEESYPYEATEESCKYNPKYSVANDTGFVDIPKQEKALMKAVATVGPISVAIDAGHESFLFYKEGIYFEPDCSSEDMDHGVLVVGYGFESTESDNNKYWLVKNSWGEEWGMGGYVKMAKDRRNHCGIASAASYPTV
Abl1: Tyrosine-protein kinase ABL1 (Abl1, Mus musculus, UniProt P00520)
Sequence of UniProt P00520 (whole entry, looked up): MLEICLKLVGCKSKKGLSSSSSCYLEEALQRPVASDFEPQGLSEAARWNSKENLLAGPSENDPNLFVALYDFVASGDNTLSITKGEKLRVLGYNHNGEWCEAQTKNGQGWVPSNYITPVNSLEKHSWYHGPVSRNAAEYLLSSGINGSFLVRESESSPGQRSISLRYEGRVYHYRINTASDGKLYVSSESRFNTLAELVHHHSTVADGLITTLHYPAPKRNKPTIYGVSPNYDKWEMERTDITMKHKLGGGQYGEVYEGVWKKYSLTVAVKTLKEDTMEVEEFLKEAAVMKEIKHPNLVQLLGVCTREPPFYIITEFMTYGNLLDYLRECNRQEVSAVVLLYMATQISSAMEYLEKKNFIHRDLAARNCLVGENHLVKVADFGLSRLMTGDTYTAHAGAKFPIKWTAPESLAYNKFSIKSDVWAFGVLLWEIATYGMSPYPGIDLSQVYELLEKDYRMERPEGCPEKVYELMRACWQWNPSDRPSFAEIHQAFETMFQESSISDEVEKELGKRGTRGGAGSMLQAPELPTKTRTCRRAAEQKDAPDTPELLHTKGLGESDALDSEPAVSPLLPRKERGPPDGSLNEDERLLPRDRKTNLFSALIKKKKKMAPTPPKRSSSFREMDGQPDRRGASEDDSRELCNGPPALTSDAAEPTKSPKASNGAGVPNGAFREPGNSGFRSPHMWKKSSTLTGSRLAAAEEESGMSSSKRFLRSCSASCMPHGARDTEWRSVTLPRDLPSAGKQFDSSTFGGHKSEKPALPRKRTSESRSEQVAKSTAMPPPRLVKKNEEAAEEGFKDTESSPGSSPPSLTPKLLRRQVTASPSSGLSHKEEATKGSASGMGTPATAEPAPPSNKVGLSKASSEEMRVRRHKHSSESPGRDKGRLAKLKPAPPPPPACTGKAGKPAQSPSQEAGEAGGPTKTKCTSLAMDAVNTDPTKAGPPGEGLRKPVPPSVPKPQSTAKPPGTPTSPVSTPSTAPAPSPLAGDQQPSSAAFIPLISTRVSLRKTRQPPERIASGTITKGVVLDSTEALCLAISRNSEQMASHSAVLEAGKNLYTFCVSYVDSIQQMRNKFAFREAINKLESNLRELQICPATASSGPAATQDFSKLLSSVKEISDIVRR
PPARG: Peroxisome proliferator-activated receptor gamma (PPARG, Homo sapiens, UniProt P37231)
POLQ helicase domain: DNA polymerase theta, helicase domain (POLQ, Homo sapiens, UniProt O75417)
ung: ung (Escherichia coli, UniProt P12295)
Sequence of UniProt P12295 (whole entry, looked up): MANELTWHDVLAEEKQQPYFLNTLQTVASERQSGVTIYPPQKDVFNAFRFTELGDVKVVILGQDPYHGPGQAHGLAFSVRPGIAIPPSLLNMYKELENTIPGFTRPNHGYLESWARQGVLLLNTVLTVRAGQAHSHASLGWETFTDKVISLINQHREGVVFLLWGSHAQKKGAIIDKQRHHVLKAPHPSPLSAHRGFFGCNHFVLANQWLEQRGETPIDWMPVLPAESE
Sequence of UniProt P19447 (whole entry, looked up): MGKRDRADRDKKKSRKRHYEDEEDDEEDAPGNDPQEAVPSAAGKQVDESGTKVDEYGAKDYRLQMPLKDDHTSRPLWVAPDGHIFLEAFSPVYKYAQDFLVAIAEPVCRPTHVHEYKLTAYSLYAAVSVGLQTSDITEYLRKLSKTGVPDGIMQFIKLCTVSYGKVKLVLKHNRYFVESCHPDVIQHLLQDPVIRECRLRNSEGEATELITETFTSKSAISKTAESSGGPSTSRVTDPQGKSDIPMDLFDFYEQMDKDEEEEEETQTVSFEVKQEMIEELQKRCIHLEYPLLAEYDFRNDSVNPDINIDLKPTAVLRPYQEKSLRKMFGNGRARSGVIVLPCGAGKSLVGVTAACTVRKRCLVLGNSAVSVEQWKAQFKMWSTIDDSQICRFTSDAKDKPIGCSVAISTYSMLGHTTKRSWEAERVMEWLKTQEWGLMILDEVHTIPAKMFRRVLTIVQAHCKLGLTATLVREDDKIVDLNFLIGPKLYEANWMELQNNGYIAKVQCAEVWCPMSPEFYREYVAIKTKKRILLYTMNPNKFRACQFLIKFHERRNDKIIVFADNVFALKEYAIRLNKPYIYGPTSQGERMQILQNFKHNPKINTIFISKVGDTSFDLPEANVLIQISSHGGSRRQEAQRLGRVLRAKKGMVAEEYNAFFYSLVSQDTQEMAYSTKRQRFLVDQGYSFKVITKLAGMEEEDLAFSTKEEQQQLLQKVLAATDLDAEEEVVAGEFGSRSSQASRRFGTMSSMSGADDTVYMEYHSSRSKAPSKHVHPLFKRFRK
Sequence of UniProt P45983 (whole entry, looked up): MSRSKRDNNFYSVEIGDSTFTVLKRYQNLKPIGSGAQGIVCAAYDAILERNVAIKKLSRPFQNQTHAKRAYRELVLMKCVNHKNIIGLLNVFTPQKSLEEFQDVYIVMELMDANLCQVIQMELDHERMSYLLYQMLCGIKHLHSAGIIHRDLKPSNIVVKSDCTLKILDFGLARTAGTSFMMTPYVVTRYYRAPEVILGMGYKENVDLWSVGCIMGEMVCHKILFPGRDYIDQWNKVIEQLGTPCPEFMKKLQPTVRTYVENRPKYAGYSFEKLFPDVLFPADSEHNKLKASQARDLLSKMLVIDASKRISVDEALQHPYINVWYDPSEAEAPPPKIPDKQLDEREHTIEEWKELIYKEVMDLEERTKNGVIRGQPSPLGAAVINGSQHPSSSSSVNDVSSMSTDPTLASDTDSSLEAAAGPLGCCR
Sequence of UniProt P10721 (whole entry, unmodified, looked up): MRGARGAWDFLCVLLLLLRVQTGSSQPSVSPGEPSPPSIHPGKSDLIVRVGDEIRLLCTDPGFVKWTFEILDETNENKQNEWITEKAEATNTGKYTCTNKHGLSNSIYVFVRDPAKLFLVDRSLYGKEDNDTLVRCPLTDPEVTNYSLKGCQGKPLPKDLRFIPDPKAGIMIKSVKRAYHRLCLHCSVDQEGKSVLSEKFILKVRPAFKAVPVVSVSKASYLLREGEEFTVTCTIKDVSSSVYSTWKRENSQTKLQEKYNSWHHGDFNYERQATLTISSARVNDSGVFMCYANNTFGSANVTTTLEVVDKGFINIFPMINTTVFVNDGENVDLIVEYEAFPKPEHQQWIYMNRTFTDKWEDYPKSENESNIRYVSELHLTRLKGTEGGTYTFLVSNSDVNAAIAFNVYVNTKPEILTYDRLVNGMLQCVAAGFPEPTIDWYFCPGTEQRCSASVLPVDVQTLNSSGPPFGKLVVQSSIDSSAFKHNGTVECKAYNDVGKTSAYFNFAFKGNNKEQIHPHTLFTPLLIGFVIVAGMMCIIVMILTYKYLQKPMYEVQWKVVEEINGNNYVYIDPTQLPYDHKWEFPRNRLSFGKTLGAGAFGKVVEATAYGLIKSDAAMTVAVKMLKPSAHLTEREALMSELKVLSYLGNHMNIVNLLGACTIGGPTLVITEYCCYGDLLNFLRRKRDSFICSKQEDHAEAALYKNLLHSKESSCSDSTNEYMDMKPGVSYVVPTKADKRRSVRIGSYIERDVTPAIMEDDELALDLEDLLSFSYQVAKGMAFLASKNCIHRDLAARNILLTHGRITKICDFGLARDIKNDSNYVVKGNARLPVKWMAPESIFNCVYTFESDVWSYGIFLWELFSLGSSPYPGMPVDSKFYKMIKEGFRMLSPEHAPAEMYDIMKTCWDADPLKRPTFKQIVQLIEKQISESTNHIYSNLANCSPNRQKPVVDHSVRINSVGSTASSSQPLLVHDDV
Sequence of UniProt P10144 (whole entry, looked up): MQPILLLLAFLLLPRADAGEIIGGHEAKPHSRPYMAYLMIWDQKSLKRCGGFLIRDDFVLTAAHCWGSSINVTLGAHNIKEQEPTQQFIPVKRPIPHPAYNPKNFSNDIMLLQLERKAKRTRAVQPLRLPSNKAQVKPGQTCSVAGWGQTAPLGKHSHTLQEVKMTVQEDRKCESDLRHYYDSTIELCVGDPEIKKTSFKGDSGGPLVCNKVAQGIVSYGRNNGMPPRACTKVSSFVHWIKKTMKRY

`COC1CN([C@H]2CC[C@H]([C@@]3(C)Oc4c(Cl)cc(C(=O)NCc5c(SC)cc(C)[nH]c5=O)c(C)c4O3)CC2)C1`: “log2 fold change” 2.24 (RNA-seq, measured: KREMEN1; human, whole blood; dose not given, 24 h; relative to: pretreatment baseline).
With `O=C1CC(c2ccccc2)N1S(=O)(=O)c1ccc(Br)cc1` (stereo not drawn) the remaining activity was 72% (Rhomboid protease AarA; enzyme activity, inhibitor; 100 µM).
For `CC(C)[C@@H]1NC(=O)[C@H](Cc2ccccc2)NC(=O)CSC[C@@H](C(N)=O)NC(=O)[C@H](CCC(=O)O)NC(=O)[C@H](CO)NC(=O)[C@H](Cc2c[nH]c3cccc(Cl)c23)NC(=O)[C@H](C2CCCCC2)NC(=O)[C@H](C(C)C)NC(=O)[C@H](Cc2ccc(O)cc2)NC(=O)[C@H](CC(=O)O)NC(=O)[C@H](Cc2c[nH]c3ccccc23)NC(=O)[C@H](Cc2ccc(N)nc2)NC(=O)[C@H](Cc2c[nH]c3ccc(Cl)cc23)NC(=O)[C@H](CCC(=O)O)NC1=O`, the remaining activity was 48.1% (IL1RL2; reporter gene (SEAP), inhibitor, HEK-Blue IL-36R reporter; HEK-Blue IL-36R cells; 3.7 µM, 6 h, with: IL-36β 1 ng/mL).
Under “percent of control”, `C=CC(=O)Nc1cccc(Cn2ncc3cnc(Nc4cnn(CCOC)c4)nc32)c1` is recorded as 1.8% (DRAK2 human; binding, KINOMEscan; 100 nM; lower = stronger binding).
For `CN(C)C(=O)c1cccc([C@@H]2C[C@H]2NC2CCC2)c1`, the remaining activity was 65.1% (KDM1A; demethylase activity, inhibitor; 16.67 µM, with: H3K4me2 peptide).
`COC(=O)[C@@]1(C)C=C(C(=O)Nc2cccc(C(=O)Nc3ccc(Nc4nccc(-c5cccnc5)n4)c(C)c3)c2)C(=O)CC1` gave a remaining activity of 0.518 (Mitogen-activated protein kinase 8, phosphorylated (MAPK8, Homo sapiens, UniProt P45983); enzyme activity after dialysis, inhibitor; 10 µM, 5 days, unit not given; relative to: no inhibitor).
`COC(=O)c1cc2cc3c(cc2oc1=O)N(CC(=O)NC(Cc1ccc(C)cc1)C(=O)NCC=CS(=O)(=O)c1ccccc1)CCC3` (stereo not drawn) has a remaining activity of 6% (CTSL; inhibitor; 5 µM, 60 min, with: Z-Phe-Arg-pNA; relative to: uninhibited control).
The remaining activity of `O=C1CC(c2ccccc2)N1S(=O)(=O)c1ccc(-c2ccc(Cl)cc2)cc1` (stereo not drawn) is reported as 95% (Rhomboid protease AarA; enzyme activity, inhibitor; 100 µM).
`O=C=[N][Ru-4]123([n]4c5ccc(O)cc5c5c6c(c7cc(F)c[n+]1c7c54)C(=O)NC6=O)[S+]1CC[S+]2CC[S+]3CC1` (stereo not drawn) has a remaining activity of 103% (Abl1; enzyme activity; 100 nM, mouse enzyme, with: 10 µM ATP; relative to: untreated).
For `CCCCCC(O)/C=C/C=O` (stereo not drawn), “probe labelling ratio” read 0.68 (Hypoxanthine-guanine phosphoribosyltransferase (Homo sapiens, UniProt P00492); acylphosphate-ATP probe SILAC-ABPP, measured: HPRT1; ZAK-transfected HEK293T; 100 µM, with: acylphosphate-ATP probe; relative to: DMSO over compound-treated).
The remaining activity of `N#Cc1cnc2sc(C(=O)O)cc2c1N1CCc2[nH]nc(C(=O)N[C@@H](CC(=O)NCCOCCN3CCOCC3)c3cccc(Br)c3)c2C1` is reported as 84.8% (IL1RL2; SEAP reporter gene, antagonist; HEK-Blue IL-36R cells; 0.005 µM, 6 h, with: IL-36 0.003 ng/mL; relative to: untreated).
With `Cc1ccc(C)c(-c2ccc3nc(NC(=O)C4CCCCC4)nn3c2)c1` the remaining activity was 98% (AMPK; enzyme activity; 10 µM).
The IC50 of `Cc1c(Cc2ccc(OC(C)(C)C(=O)O)cc2)c2ccc(C(=O)N[C@@H](C)c3ccc(C4CC4)cc3)cc2n1C` is reported as 0.007 µM (PPARG; ligand displacement, TR-FRET).
`Cc1cccc(-c2ccc(S(=O)(=O)N3C(=O)CC3c3ccccc3)cc2)c1` (stereo not drawn) gave a remaining activity of 100% (Rhomboid protease AarA; enzyme activity, inhibitor; 100 µM).
`CN1C[C@@H](c2c[nH]c3cc(Br)ccc23)NC[C@@H]1c1c[nH]c2cc(Br)ccc12` gave a remaining activity of 102% (Cyclin-dependent kinase 20, with cyclin T1 (CDK20, Homo sapiens, UniProt Q8IZL9); enzyme activity, inhibitor; 10 µM).
The remaining activity of `O=C(Nc1cccc([C@@H]2C[C@H]2NC2CCC2)c1)c1ccccc1` is reported as 82.2% (KDM1A; demethylase activity, inhibitor; 1.852 µM, with: H3K4me2 peptide).
`Nc1ncc(-c2cc(-c3cnn(CC(F)(F)F)c3)ncc2F)nc1C(=O)NC1CNCC(F)C1` (stereo not drawn) has a remaining binding of 58% (BRAF; KINOMEscan; 1 µM; relative to: DMSO control).
`COC(=O)c1ccc2c(c1)nc(NC(=O)c1ccccc1)n2CCCc1ccccc1` gave a remaining activity of 87% (HDAC5 (Homo sapiens, UniProt Q9UQL6); enzyme activity, inhibitor; 10 µM).
The remaining activity of `COc1ccc(NC(=O)Nc2ccc3c(c2)C(=O)N(C(C)CO)CC(C)C(CN(C)Cc2ccc4c(c2)OCO4)O3)cc1` (stereo not drawn) is reported as 99% (Abl1; kinase activity; 0.03 µM; relative to: control).
The remaining activity of `COC(=O)c1cc2cc3c(cc2oc1=O)N(CC(=O)NC(Cc1cccc(Cl)c1)C(=O)NCC=CS(=O)(=O)c1ccccc1)CCC3` (stereo not drawn) is reported as 7% (CTSL; inhibitor; 5 µM, 60 min, with: Z-Phe-Arg-pNA; relative to: uninhibited control).
For `CC(C)C[C@H](NC(=O)[C@H](Cc1ccc(O)cc1)NC(=O)[C@@H](CCCNC(=N)N)NC(=O)[C@@H](CO)NC(=O)[C@H](Cc1ccccc1)NC(=O)[C@H](CC1CCCCC1)NC(=O)[C@H](CC(=O)O)NC(=O)CN1CCN(CC(=O)O)CCN(CC(=O)O)CCN(CC(=O)O)CC1)C(=O)N[C@@H](Cc1c[nH]c2ccccc12)C(=O)N[C@@H](CO)C(=O)O` [copper-64 labelled], the activity concentration was 7240 Bq/mL and 4040 Bq/mL and 7370 Bq/mL and 4950 Bq/mL and 9690 Bq/mL and 4280 Bq/mL (human, pancreas; concentration not given, 3 h).
`C=C(NC(=O)c1csc(-c2nc3c(cc2O)-c2nc(cs2)C(=O)NC(C(C)O)C(=O)NC(=C(C)OC)c2nc(cs2)C(=O)NC2c4nc(cs4)C(=O)NC(COC(=O)c4c5c6c(cccc6n4O)COC(=O)C(OC4CC(C)(O)C(N(C)C)C(C)O4)C2OC5)c2nc-3cs2)n1)C(N)=O` (stereo not drawn) gave an AUC(0-t) of 20800 ng·h/mL (male cynomolgus monkey, plasma; intravenous, 3 mg/kg, single dose, infusion).
For `COc1ccccc1-c1ccncc1C(=O)Nc1ccc(OCc2ccc(Cl)cc2)nn1`, the remaining activity was 99% (POLQ helicase domain; ATPase activity, ADP-Glo; 0.004 µM; relative to: 0 µM cpd).
`CC(C)Cn1cc(Cc2cccc(OC(C)(C)C(=O)O)c2)c2ccc(C(=O)N[C@@H](C)c3cccc(C(C)(C)C)c3)c(F)c21` gave an IC50 of 0.085 µM (PPARG; ligand displacement, TR-FRET).
With `COC(=O)c1cccc([C@@H]2C[C@H]2NC2CCC2)c1` the remaining activity was 77.3% (KDM1A; demethylase activity, inhibitor; 1.852 µM, with: H3K4me2 peptide).
For `COc1ccccc1-c1ccncc1C(=O)Nc1nnc(OCc2ccc(Cl)cc2)s1`, the remaining activity was 15% (POLQ helicase domain; ATPase activity, ADP-Glo; 30 µM; relative to: 0 µM cpd).
`Cc1nnc(Nc2ccc(O)cc2)[nH]c1=O` has a remaining activity of 108 ± 4% (ung; enzyme activity, inhibitor; concentration not given, counter-screen).
`Cc1nnc(NC(=O)c2cc([C@@H]3C[C@H]3NC3CCC3)ccc2Br)s1` (relative stereo) has a remaining activity of 101% (KDM1A; demethylase activity, inhibitor, Amplex Red; 0.02743 µM, with: H3K4me2 peptide; relative to: vehicle).
`O=C(c1cccc(-c2cc(NCCO)ncn2)c1)N1CCCC1c1ccccc1` (stereo not drawn) has a remaining activity of 110 ± 5% (ung; enzyme activity, inhibitor; concentration not given, counter-screen).
`COc1cc(Nc2nccc(-c3cnn4nc(OC)ccc34)n2)cc(C(F)(F)F)c1` has a remaining binding of 63% (KIT (Homo sapiens, UniProt P10721, V559D); binding; 1 µM).
The remaining activity of `Cc1nnc(NC(=O)c2ccc([C@@H]3C[C@H]3NC3CCC3)cc2)s1` (racemic) is reported as 27.6% (KDM1A; demethylase activity, inhibitor; 0.6173 µM, with: H3K4me2 peptide).
For `O=C(Nc1cnccc1-c1ccc([18F])cc1)c1ccnc(NC(=O)C2CC2)c1`, the SUV was 0.23 (ex vivo gamma counting; FVB/NJ mice, both sexes, cortex; intravenous, 120 min, mean, P-gp inhibitor pretreatment, with: tariquidar 15 mg/kg iv).
With `C[C@](C(=O)NC1CCOCC1)(c1cncnc1)N(C(=O)[C@H](F)Cl)c1ccc(OC(F)(F)Cl)cc1` the remaining activity was 105% (Granzyme B (GZMB, Homo sapiens, UniProt P10144); enzyme activity, inhibitor; 10 µM).
`O=C(Nc1ccccc1)c1cccc([C@@H]2C[C@H]2NC2CCC2)c1` (racemic) has a remaining activity of 17.9% (KDM1A; demethylase activity, inhibitor, Amplex Red; 0.6667 µM, with: H3K4me2 peptide; relative to: vehicle).
The remaining activity of `NC(=O)c1ccc2nc(CN3CCCC3c3ccco3)cc(O)c2c1` (stereo not drawn) is reported as 108 ± 4% (ung; enzyme activity, inhibitor; concentration not given, counter-screen).
With `Cc1ccc(S(=O)(=O)N2C(=O)C[C@H]2C(=O)OCc2ccccc2)cc1` the remaining activity was 84% (Rhomboid protease AarA; enzyme activity, inhibitor; 100 µM).
With `CN(C)S(=O)(=O)c1ccc(S(=O)(=O)N2CCC(n3c(=O)[nH]c4ccccc43)CC2)cc1` the remaining activity was 94.5% and 97.1% (General transcription and DNA repair factor IIH helicase/translocase subunit XPB (Homo sapiens, UniProt P19447); ATPase activity, BIOMOL Green; concentration not given).
With `CNC(=O)c1cccc([C@@H]2C[C@H]2NC2CCC2)c1` (racemic) the remaining activity was 34% (KDM1A; demethylase activity, inhibitor; 50 µM, with: H3K4me2 peptide).
`C[C@H](NC(=O)[C@H](Cc1c[nH]c2ccccc12)NC(=O)[C@H](CO)NC(=O)[C@H](Cc1ccc(O)cc1)NC(=O)[C@@H](N)CC(=O)O)C(=O)N[C@@H](CCC(=O)O)C(=O)N[C@@H](CCC(=O)O)C(=O)N[C@@H](CCC(=O)O)C(=O)N[C@@H](CC(=O)O)C(=O)N[C@@H](CCC(=O)O)C(=O)O` — result for “residual peak intensity”: ~75% (Xenopus laevis; TROSY-HSQC NMR titration; 25 °C, labelled H2A or H2B; relative to: unbound state).
`CC1C(=O)N(S(=O)(=O)c2ccc(C#N)cc2)C1c1ccccc1` (racemic) has a remaining activity of 57% (Rhomboid protease AarA; substrate cleavage, gel-based; 100 µM; relative to: DMSO).
`CN1CCCNC(=O)c2cccc(c2)C(=O)NCCCN(C)CCCNc2cccc3c2C(=O)c2cccc(c2C3=O)NCCC1` gave an apoptotic cells of 26.4% (SAS; annexin V/PI staining; 5 µM, 24 h, mean).
`Cc1cc(C(=O)Nc2nc3cccc(C)c3n2[C@H]2CCCCN(C(=O)/C=C/CN(C)C)C2)ccn1` has a remaining activity of 66.6% (CDC2-like kinase 1 (Trypanosoma brucei brucei, UniProt Q382U0); kinase activity, ADP-Glo; 0.07812 µM).

Repeated from above:
`Cc1cc(C(=O)Nc2nc3cccc(C)c3n2[C@H]2CCCCN(C(=O)/C=C/CN(C)C)C2)ccn1` has a remaining activity of 66.6% (CDC2-like kinase 1 (Trypanosoma brucei brucei, UniProt Q382U0); kinase activity, ADP-Glo; 0.07812 µM).
`CN1CCCNC(=O)c2cccc(c2)C(=O)NCCCN(C)CCCNc2cccc3c2C(=O)c2cccc(c2C3=O)NCCC1` gave an apoptotic cells of 26.4% (SAS; annexin V/PI staining; 5 µM, 24 h, mean).
